Measurements from different studies.
Parts stem from different laboratories: compare values within a part only.

Series 1
Target: Histone acetyltransferase KAT6A, winged helix 1, GST fusion (KAT6A, Homo sapiens, UniProt Q92794, residues 1-85)
Technique: protein binding microarray
Molecule type: double-stranded DNA, one strand shown
Medium: in vitro
Concentration: not given
Notes: 8-mer, flanks averaged, mean of 2 arrays, mostly near background
Relative to: not given
Direction: higher = stronger binding
Construct (chain): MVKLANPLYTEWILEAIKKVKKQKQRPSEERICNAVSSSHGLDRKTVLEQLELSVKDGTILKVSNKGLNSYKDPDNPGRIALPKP
| Oligonucleotide | E-score |
| --- | --- |
| AACGTTCC | 0.157 |
| CATGCGGC | 0.255 |
| ACATCTGG | -0.139 |
| TCAAGGCA | -0.269 |
| ATAGGCGA | -0.00612 |
| AATCCATG | -0.194 |
| CAGTCTTA | 0.00111 |
| AAATTCCC | 0.0983 |

Series 2
Cell line: HEK-293T
Effect on: pseudovirus infection
Technique: FDA-approved drug library screen
Organism: VSV pseudotyped with SARS-CoV-2 spike
Concentration: 10 µM
Time: 16 h
Relative to: vehicle-treated
| Structure (SMILES) | GFP-positive cells [%] |
| --- | --- |
| CC[C@H]1OC(=O)[C@H](C)[C@@H](O[C@H]2C[C@@](C)(OC)[C@@H](O)[C@H](C)O2)[C@H](C)[C@@H](O[C@@H]2O[C@H](C)C[C@H](N(C)C)[C@H]2O)[C@](C)(O)C[C@@H](C)CN(C)[C@H](C)[C@@H](O)[C@]1(C)O | 18.4 |
| CC(C(=O)O)c1ccc2c(c1)[nH]c1ccc(Cl)cc12 (centres unmarked) | 79.7 |
| CC1(C)O[C@@H]2C[C@H]3[C@@H]4CCC5=CC(=O)C=C[C@]5(C)[C@H]4[C@@H](O)C[C@]3(C)[C@]2(C(=O)CO)O1 | 89.7 |
| O=C(O)CCCc1ccccc1 | 72.6 |

Series 3
Organism: SARS-CoV-2
Effect on: cytopathic effect
Cell line: Vero E6
Concentration: 10 µM
| SMILES | inhibition [%] |
| --- | --- |
| CCCCC/C=C\C/C=C\C/C=C\C/C=C\CCCC(=O)O | -8.4 |
| CN(C)CCNc1nc2cc(O)ccc2c2c1C(=O)c1ccccc1-2 | -10.3 |
| O=C(O)c1ccc(N2C(=O)/C(=C\c3ccc(-c4ccc([N+](=O)[O-])cc4)o3)C=C2c2ccccc2)cc1 | 43.9 |

Series 4
Target: RNA binding protein fox-1 homolog 2, RRM domain, GST-SBP tag (RBFOX2, Homo sapiens, UniProt O43251-10, residues 100-194)
Technique: RNA Bind-n-Seq
Molecule type: RNA
Medium: in vitro
Concentration: 365 nM
Notes: natural RNA segment, single round, ends assumed
Relative to: no-protein control
Direction: higher = stronger binding
Constant ends, left off below: GGGAGUUCUACAGUCCGACGAUC … UGGAAUUCUCGGGUGCCAA
Residues (chain): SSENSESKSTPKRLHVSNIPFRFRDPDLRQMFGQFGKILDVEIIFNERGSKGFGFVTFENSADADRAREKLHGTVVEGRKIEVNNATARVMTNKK
| Oligonucleotide | RBNS enrichment (R) |
| --- | --- |
| CCCAUUUCCACCUCCCAGUAAACUGACUUAUAAAUUGCUAUACUUUUCCUGUUUUUUCUGUUGCUGUGGAACUUAAAGAAUGUGAAAGCUGUCAAAGGGUGUUUUCGGAA | 0.71 |
| AUCACAAUAGCAUCCCAGAGAGACAGUAGGAAAUUUCUCCUUAGUGAGAGCUGAGUCCUUGAGAAGUUAAGAGACUGUUUCCUGCUUCCCACCCCACCCCGUUUUUUGUC | 1.14 |
| CUUCACUGGUUUAUCUGCAGAAAUUUCUCUGGGCUUUUUUCGGUGUUAGAUUCAACACUGCGCUAAAGCGGGGAUGUUCCAUUGAAUAAAAGAGCAGUGUGGUUUUCUGG | 0.366 |
| CGCCCCUGGGGCUGGCCUCUCCGCCCUCGCCCUCGGAGUAGGGGGUAGCGGCUUGGGUCUGACACAUCUUUGAACCUUGUGGCCAGGCCUGGACUUCGCCCCCAGGCCUA | 0.214 |
| UAGGCCAGGCUGGCUCCUGGCUGUGAAGGAACUUCCGGUCCCCAAGAAGCCUUGAAGACUGGACAAGGGAGGACAGGGUGGAGCAGGGAUAGCCGUGGCUUCAUUUAUCG | 0.346 |
| AUGGGGGCGACUGGGGAGUCCUCAUUGAAUCCUCAUUUUAUACCCAAAACCCUGAAGCCAUUGGAGAGCUGUCUUCCUGUGUACCUCUAGAAUCCCAGCAGCAGAGAACC | 0.58 |
| AUGUCAGGGUCUGUUCUAGUCUAUGUCAAGCAAUAACUGUCAGUGCAUAAAUCGAUUAGUCUGCUGUUGCUUAAGGCAGCAGCCCCAGGCAGCAUUUAAGCGGGAUCCUU | 0.274 |
| AGGCGACCGCGGCGCAGCUCCCACCCCGCCCUGCCCGGCCCCGAGCGCUUGCCCGAGGCCAGCGCGCUCCCCGCGCCAGGACUCCAUUAAAGCCGCUAAGACGCGCGGGC | 0.379 |

Series 5
Target: Replicase polyprotein 1ab, nsp13 helicase (rep, Severe acute respiratory syndrome coronavirus 2, UniProt P0DTD1)
Mode: inhibitor
Concentration: 20 µM
| SMILES | inhibition |
| --- | --- |
| CO/N=C(\C(=O)N[C@@H]1C(=O)N2C(C(=O)O)=C(C)CS[C@H]12)c1csc(N)n1 | 5.83% |
| COc1c2ccoc2cc2oc(=O)ccc12 | 2% |
| COC(=O)Nc1ccc(-c2nc(N3CCOCC3)c3cnn(C4CCN(C(=O)OC)CC4)c3n2)cc1 | 0.33% |
| CC(C)NCC(O)c1ccc(O)c(O)c1 (centres unmarked) | 0.01% |
| CC1CCN(CC[C@H]2CCCN2S(=O)(=O)c2cccc(O)c2)CC1 | 5.72% |
| Cc1o[nH]c(=O)c1C[C@H](N)C(=O)O | 2.18% |
| O=C(O)COc1cccc(-c2ocnc2-c2nc(-c3ccccc3)c(-c3ccccc3)o2)c1 | -4.18% |
| CN[C@H]1C[C@@H](N)[C@H](O)[C@@H](O[C@@H]2O[C@H](CO)[C@H](O)[C@@H]3OC4(O[C@H]23)O[C@H]([C@@H](N)CO)[C@H](O)[C@H](O)[C@H]4O)[C@@H]1O (some centres unmarked) | 2.97% |
| O=c1[nH]c2ccc(Cl)cc2c(N[C@@H]2CN3CCC2CC3)c1-c1nc2ccccc2[nH]1 | 37.4% |
| CC(=O)c1c(C)c2cnc(Nc3ccc(N4CCNCC4)cn3)nc2n(C2CCCC2)c1=O | 13.8% |
| N#C[C@@H]1C[C@@H]2C[C@@H]2N1C(=O)[C@@H](N)C12CC3CC(CC(O)(C3)C1)C2 | 9.63% |
| COc1ccc(C(=O)c2ccccc2O)c(O)c1 | 4.21% |
| Cc1cc2nc3ccc(N(C)C)cc3[s+]c2cc1N | 107% |
| COc1ncc(-c2ccc3c(Nc4cc(Oc5cc(F)cc(F)c5)cc(C(=O)O)c4)c(S(=O)(=O)NC4CC4)cnc3c2)c(OC)n1 | 11.8% |
| COc1cc(CCc2cc(NC(=O)c3ccc(N4C[C@@H](C)N[C@@H](C)C4)cc3)n[nH]2)cc(OC)c1 | -3.14% |
| NNC(=O)CN1C(=O)CN=C(c2ccccc2)c2cc(Br)ccc21 | 9.92% |
| C[C@]1(Cn2ccnn2)[C@H](C(=O)O)N2C(=O)C[C@H]2S1(=O)=O | 0.73% |
| Cc1cc(C)cc(C(=O)N(C)[C@H](Cc2ccc(-c3ccccc3)cc2)C(=O)N[C@@H](Cc2c[nH]c3ccccc23)C(=O)O)c1 | 37.4% |
| C[C@@H](O)[C@H]1C(=O)N2C(C(=O)O)=C(S[C@@H]3CN[C@H](CNS(N)(=O)=O)C3)[C@H](C)[C@H]12 | 4.98% |
| CCCN(CCC)C1Cc2cc(OC)c(OC)cc2C1 | -3.65% |
| CCCN1C[C@H](NS(=O)(=O)N(CC)CC)C[C@H]2Cc3c(O)cccc3C[C@@H]21 | 2.95% |
| Clc1ccc(Cn2c(CN3CCCC3)nc3ccccc32)cc1 | -1.06% |
| CS(=O)(=O)Oc1ccc2c(NC(N)=O)c(C(=O)c3ccc(Cl)cc3Cl)oc2c1 | 6.11% |
| CC(=O)N(CC(C)C(=O)O)c1c(I)cc(I)c(N)c1I (centres unmarked) | 6.93% |
| Cc1cccn2c(=O)c(/C=C(\C#N)c3nc4ccccc4s3)c(Oc3ccc(F)cc3)nc12 | 18.9% |

Series 6
Target: RING finger protein unkempt homolog, zinc fingers 1-6, SBP tag (UNK, Homo sapiens, UniProt Q9C0B0, residues 30-357)
Sequence of UniProt Q9C0B0 (30-357, looked up): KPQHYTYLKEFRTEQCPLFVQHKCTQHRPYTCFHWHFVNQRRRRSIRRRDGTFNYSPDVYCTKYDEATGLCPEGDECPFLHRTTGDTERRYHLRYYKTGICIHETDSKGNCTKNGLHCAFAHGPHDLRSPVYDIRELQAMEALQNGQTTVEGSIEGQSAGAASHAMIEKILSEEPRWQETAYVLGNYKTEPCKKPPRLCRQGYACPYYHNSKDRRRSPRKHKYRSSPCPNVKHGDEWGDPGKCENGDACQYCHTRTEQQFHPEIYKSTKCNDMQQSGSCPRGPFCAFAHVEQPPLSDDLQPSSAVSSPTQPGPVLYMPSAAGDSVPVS
Technique: RNA Bind-n-Seq
Molecule type: RNA
Medium: in vitro
Concentration: 100 nM
Notes: RNA with constant flanks, vertebrate orthologous sites, ends assumed
Relative to: input RNA pool
Direction: higher = stronger binding
Constant ends, left off below: GGGAGUUCUACAGUCCGACGAUC … CAACAGAGGAUUGAGCAUCA
| Oligonucleotide | bound/input enrichment [ratio] |
| --- | --- |
| GCCUGUUCUUUUGCUCUUCAGUGGAAGAGAUAAAUUGGGAAACACUGUCUUCUUUUUAUAGUUUGUUUCUAAAUUAUGACCAAAAAAAUAUUUUGCUAUUUCUUUCUUUAUAUAUGGACA | 0.658 |
| CUCUAUGGGCCUCGCAGAGUUGAAAUAAUGGAAGAGGAAAGUGAACAGUAAUCUUCAUUUUAGUAUUUAUGCUUAGGUGUGAAAUAAAUGUUAUUUGUUGAUCACUUCUAUAAUCCACAG | 0.439 |
| CAGGGAUGGCCCCAACCCCACCUCUGUCCAUUCUGUAAACUACAACCUGUAAAUAACGUUUAGCAUUCCUAUUGUAACAAAAUUAAUUUUUAUGAAAUAAAUUAUAUUUCCUAGUCUAAU | 1.01 |
| AUCAUGGCCACUUUUACCUGCCUCAAUGAGGUAAUGUCUCCCCUGGCGUUUGGUUGGCGCUAGAGCCCAUCACACCUAAUAUGUCUUUCCACAUUUCAUUUCUUCACGCUUACAGUCAGU | 0.671 |
| AAAACCCCGAUUUUAGAUGUGAUAUCUAGGCUUUCAUUCCAGUUGUUUUUGUCUUUUGUUUAGAUACCACUUUUAAAUUCUUGCAUUUUAGUAAGAAAUCUAUCUUUUUAUGGAUGUUAG | 0.686 |
